Measured values pooled from the literature.
A part holds a random share of what one study measured. “And” joins repeats or separate records; there may be more than shown.
Chain of UniProt P10721 (whole entry, unmodified, looked up): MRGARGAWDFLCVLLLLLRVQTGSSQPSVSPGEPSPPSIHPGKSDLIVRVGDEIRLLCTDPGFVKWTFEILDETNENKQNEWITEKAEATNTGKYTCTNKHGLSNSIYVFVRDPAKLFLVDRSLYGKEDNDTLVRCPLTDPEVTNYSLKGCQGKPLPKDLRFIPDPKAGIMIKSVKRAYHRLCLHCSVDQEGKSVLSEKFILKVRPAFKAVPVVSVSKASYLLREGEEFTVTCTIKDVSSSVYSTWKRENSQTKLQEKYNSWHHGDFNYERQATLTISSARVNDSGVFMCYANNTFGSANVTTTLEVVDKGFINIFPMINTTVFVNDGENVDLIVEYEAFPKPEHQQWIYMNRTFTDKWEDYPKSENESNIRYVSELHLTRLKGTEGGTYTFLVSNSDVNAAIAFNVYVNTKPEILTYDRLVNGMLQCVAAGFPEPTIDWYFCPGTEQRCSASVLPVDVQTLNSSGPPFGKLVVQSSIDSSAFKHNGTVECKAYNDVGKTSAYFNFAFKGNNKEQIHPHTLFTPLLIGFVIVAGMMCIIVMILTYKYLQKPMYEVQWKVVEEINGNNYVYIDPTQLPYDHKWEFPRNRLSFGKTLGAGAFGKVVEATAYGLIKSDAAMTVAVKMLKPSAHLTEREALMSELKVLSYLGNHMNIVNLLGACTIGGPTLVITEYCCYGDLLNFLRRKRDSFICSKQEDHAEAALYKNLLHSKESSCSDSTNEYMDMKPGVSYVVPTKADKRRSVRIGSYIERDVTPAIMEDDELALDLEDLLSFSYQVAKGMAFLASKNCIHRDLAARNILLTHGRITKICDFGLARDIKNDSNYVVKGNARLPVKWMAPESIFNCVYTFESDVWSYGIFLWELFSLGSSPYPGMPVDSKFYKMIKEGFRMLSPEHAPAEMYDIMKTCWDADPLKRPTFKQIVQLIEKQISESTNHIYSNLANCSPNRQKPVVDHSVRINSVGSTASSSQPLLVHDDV
Chain of UniProt P51812 (whole entry, looked up): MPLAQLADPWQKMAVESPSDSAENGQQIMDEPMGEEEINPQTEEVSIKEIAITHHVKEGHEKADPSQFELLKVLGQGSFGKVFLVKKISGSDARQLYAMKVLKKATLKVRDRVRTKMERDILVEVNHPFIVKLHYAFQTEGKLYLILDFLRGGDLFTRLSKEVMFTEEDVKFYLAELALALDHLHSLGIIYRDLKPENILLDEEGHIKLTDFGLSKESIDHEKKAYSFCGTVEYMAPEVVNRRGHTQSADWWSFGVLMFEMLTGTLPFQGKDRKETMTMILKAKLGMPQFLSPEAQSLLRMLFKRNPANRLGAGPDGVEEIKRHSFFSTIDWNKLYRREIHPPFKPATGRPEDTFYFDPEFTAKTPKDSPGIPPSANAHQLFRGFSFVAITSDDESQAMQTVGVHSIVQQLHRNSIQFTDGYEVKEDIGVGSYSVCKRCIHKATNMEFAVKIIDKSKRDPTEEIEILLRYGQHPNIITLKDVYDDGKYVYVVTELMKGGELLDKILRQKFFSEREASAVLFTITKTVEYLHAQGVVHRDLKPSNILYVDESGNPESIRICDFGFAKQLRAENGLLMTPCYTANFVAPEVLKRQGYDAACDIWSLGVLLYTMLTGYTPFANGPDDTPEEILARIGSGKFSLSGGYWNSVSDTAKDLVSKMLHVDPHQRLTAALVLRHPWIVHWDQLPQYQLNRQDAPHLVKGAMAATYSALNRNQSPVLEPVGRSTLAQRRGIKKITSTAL
Chain of UniProt P50750 (whole entry, looked up): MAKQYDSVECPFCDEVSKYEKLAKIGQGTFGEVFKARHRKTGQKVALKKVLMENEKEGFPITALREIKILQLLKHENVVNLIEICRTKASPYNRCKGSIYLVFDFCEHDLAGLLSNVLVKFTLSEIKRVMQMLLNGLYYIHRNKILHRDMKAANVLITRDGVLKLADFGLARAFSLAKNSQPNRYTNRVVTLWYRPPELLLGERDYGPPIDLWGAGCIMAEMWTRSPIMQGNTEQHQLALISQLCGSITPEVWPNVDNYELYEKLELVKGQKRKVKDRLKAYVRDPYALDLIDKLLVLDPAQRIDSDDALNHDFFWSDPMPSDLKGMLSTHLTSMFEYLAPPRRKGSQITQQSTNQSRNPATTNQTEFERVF
Chain of UniProt O75676 (whole entry, looked up): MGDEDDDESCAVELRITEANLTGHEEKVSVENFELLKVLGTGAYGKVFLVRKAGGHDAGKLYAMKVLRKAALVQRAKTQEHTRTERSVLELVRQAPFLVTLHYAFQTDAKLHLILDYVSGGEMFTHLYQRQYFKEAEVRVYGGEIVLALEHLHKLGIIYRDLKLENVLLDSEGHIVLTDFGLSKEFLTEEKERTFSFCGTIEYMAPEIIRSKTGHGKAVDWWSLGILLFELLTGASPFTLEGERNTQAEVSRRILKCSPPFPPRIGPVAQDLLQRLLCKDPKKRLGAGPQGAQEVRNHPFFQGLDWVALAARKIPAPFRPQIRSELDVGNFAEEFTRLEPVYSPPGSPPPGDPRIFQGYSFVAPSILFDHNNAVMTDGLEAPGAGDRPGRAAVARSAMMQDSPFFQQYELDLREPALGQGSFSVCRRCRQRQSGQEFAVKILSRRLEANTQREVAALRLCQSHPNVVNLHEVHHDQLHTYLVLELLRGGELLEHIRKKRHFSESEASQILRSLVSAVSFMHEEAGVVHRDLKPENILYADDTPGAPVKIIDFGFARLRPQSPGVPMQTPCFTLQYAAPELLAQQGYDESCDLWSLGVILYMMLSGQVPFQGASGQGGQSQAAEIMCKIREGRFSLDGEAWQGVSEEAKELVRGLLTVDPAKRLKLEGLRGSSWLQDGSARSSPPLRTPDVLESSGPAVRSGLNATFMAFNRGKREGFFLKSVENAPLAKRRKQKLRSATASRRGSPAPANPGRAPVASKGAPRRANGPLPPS
Chain of UniProt Q9UBE8 (whole entry, looked up): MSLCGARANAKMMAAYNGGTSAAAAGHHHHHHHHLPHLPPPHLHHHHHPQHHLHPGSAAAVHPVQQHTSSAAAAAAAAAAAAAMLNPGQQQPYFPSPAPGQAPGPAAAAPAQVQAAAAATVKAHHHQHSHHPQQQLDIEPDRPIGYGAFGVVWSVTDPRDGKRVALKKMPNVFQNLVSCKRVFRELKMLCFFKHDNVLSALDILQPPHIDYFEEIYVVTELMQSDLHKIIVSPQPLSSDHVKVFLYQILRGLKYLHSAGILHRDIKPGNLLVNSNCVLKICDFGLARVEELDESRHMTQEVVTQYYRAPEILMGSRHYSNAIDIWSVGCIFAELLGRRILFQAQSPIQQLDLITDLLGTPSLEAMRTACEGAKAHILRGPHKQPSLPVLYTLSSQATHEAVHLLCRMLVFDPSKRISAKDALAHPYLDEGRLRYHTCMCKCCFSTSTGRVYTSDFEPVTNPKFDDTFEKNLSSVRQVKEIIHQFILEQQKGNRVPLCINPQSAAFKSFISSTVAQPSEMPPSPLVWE
Chain of UniProt P42681 (whole entry, looked up): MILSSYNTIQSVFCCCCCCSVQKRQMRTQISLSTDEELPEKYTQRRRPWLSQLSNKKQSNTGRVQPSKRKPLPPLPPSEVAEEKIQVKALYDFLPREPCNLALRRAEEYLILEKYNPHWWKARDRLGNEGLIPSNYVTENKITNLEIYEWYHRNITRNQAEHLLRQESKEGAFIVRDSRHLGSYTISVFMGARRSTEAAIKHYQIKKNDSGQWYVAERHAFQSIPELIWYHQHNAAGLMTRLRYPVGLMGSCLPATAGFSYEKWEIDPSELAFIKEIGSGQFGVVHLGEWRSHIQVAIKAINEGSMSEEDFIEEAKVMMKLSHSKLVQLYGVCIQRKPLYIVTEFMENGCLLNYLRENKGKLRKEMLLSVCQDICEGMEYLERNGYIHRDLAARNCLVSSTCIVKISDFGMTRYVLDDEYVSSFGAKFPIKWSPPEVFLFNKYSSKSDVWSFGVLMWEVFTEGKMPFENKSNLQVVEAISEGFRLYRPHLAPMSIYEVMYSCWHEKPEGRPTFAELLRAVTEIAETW
Chain of UniProt Q9HAZ1 (whole entry, looked up): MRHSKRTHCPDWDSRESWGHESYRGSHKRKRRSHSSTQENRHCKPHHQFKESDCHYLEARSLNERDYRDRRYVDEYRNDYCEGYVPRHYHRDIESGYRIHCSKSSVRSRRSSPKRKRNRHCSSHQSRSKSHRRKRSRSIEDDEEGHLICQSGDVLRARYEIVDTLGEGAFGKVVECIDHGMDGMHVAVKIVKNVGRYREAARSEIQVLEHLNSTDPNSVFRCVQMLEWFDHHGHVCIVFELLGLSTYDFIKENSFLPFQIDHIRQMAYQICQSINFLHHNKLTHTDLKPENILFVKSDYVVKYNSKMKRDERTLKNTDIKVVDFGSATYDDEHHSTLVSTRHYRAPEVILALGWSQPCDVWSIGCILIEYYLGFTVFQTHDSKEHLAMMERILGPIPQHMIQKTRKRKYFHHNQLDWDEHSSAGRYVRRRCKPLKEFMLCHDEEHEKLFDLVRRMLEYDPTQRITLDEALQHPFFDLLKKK
Chain of UniProt Q9H4B4 (whole entry, looked up): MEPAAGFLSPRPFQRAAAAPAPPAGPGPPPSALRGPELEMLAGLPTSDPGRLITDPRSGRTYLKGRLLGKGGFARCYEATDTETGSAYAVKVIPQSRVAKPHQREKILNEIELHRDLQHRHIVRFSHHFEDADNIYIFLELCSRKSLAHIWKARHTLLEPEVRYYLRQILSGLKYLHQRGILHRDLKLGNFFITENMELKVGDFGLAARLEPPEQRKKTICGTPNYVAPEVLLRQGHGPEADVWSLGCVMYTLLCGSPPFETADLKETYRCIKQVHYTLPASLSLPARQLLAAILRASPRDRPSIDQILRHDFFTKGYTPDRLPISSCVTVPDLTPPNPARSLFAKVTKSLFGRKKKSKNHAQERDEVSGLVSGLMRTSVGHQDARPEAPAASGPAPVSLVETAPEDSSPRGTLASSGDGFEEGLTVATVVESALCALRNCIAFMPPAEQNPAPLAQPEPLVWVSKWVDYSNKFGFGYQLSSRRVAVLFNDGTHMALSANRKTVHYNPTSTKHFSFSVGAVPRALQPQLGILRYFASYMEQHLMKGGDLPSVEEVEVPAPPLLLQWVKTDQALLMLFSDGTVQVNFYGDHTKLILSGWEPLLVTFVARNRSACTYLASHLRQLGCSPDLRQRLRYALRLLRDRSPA

Block 1 — read-out: cell-free assay; technique: competition with immobilised ligand; tested at: 1 µM
SMILES: Cn1nc(C(F)(F)F)cc1-c1cnc(N2CCc3cc(S(=O)(=O)Nc4c(F)cc(Cl)cc4F)cc(N4CCCC4=O)c32)nc1
The remaining binding was 99% (Ribosomal protein S6 kinase alpha-3, N-terminal kinase domain (RPS6KA3, Homo sapiens, UniProt P51812)).
The remaining binding was 98% (Serine/threonine-protein kinase NLK (NLK, Homo sapiens, UniProt Q9UBE8)).
The remaining binding was 79% (Mitogen-activated protein kinase kinase kinase 14 (MAP3K14, Homo sapiens, UniProt Q99558)).
The remaining binding was 84% (Phosphatidylinositol 4,5-bisphosphate 3-kinase catalytic subunit delta isoform (PIK3CD, Homo sapiens, UniProt O00329)).
Serine/threonine-protein kinase PAK 2 (PAK2, Homo sapiens, UniProt Q13177) — remaining binding: 100%.
It gave 89% for remaining binding (Mast/stem cell growth factor receptor Kit (KIT, Homo sapiens, UniProt P10721, V559D/V654A)).
Fibroblast growth factor receptor 4 (FGFR4, Homo sapiens, UniProt P22455) — remaining binding: 69%.
The remaining binding was 100% (Citron Rho-interacting kinase (CIT, Homo sapiens, UniProt O14578)).
Mast/stem cell growth factor receptor Kit (KIT, Homo sapiens, UniProt P10721, A829P) — remaining binding: 80%.

Block 2
Compound: CC(=O)N[C@@H](Cc1c[nH]c2ccccc12)C(=O)N[C@@H](CCC(=O)C=[N+]=[N-])C(=O)OC(C)C
For C57BL/6 CES1-/- mouse, EL4 tumour; intravenous, 1 mg/kg DON equivalent, treatment day 17, 5 days per week: tumour volume read 0 mm3 and 86.9 mm3 and 88.9 mm3 and 154 mm3.
The tumour volume was 20.5 mm3 and 0 mm3 (mice, MC-38 tumour rechallenge; 0.26 mg/kg, day 8 after injection).
For mouse, EL4 tumour; subcutaneous, 0.3 mg/kg, day 7: tumour volume read 814 mm3 and 520 mm3 and 256 mm3 and 748 mm3 and 441 mm3 and 438 mm3.
The tumour volume was 4 mm3 and 32.7 mm3 (mice, MC-38 tumour rechallenge; 0.26 mg/kg, day 6 after injection).
The tumour volume was 0 mm3 and 102 mm3 and 179 mm3 and 101 mm3 and 85.2 mm3 and 85 mm3 (C57BL/6 CES1-/- mouse, EL4 tumour; intravenous, 1 mg/kg DON equivalent, treatment day 16, 5 days per week).

Block 3 — host: mouse; medium: microsomes or S9; tested at: 2 µM; time: 0.5 h
For `Nc1cccc(COc2cc(Cl)c(Cl)cc2Cl)c1`, the remaining compound was 69.6%.
With `N[C@@H](CC(=O)N1CCCN(Cc2ccccc2)CC1)Cc1cc(F)c(F)cc1F` the remaining compound was 1.88%.
With `Cc1ccc(CCCNC(=O)c2cc(C(C)(C)C)c(O)c(C(C)(C)C)c2)cc1C` the remaining compound was 29.9%.
The remaining compound of `Cc1cccc(C2NCCc3c2[nH]c2ccccc32)c1` (centres unmarked) is reported as 17.7%.
For `Cn1[nH]c(Br)c2/c(=N\CCN)ncnc1-2`, the remaining compound was 65%.
`CCC(NC(=O)C1=NNC(=O)CC1)c1ncccc1C` (centres unmarked) gave a remaining compound of 90.4%.
The remaining compound of `Nc1nc(N2CCOCC2)[nH]c(=O)c1Br` is reported as 96.8%.
`Oc1ccc(C23CCCC2C2(CCCC2)c2ccc(O)cc2O3)c(O)c1` (centres unmarked) has a remaining compound of 8.86%.

Block 4 — read-out: enzyme activity; action: inhibitor; tested at: 0.5 µM; relative to: control
SMILES: O=C1Nc2ccc(Br)cc2/C1=C/c1cc2c([nH]1)CCCC2
It gave 97.8% for remaining activity (Serine/threonine-protein kinase PLK3 (PLK3, Homo sapiens, UniProt Q9H4B4)).
It gave 97.3% for remaining activity (Tyrosine-protein kinase TXK (TXK, Homo sapiens, UniProt P42681)).
Calcium/calmodulin-dependent protein kinase type 1B (PNCK, Homo sapiens, UniProt Q6P2M8) — remaining activity: 98.6%.
For Dual specificity protein kinase CLK4 (CLK4, Homo sapiens, UniProt Q9HAZ1): remaining activity read 84.5%.
It gave 101% for remaining activity (Serine/threonine-protein kinase tousled-like 2 (TLK2, Homo sapiens, UniProt Q86UE8)).
The remaining activity was 96.7% (Cyclin-dependent kinase 9, with cyclin K (CDK9, Homo sapiens, UniProt P50750)).
The remaining activity was 98.8% (Rho-associated protein kinase 1 (ROCK1, Homo sapiens, UniProt Q13464)).
For Serine/threonine-protein kinase MARK2 (MARK2, Homo sapiens, UniProt Q7KZI7): remaining activity read 77%.
For Dual specificity mitogen-activated protein kinase kinase 1 (MAP2K1, Homo sapiens, UniProt Q02750): remaining activity read 84.8%.
Mitogen-activated protein kinase 11 (MAPK11, Homo sapiens, UniProt Q15759) — remaining activity: 96.8%.
It gave 94.2% for remaining activity (Ribosomal protein S6 kinase alpha-4 (RPS6KA4, Homo sapiens, UniProt O75676)).
Serine/threonine-protein kinase Nek3 (NEK3, Homo sapiens, UniProt P51956) — remaining activity: 86.7%.
It gave 98.2% for remaining activity (Serine/threonine-protein kinase DCLK2 (DCLK2, Homo sapiens, UniProt Q8N568)).

Some of these lines once more (block 4):
It gave 101% for remaining activity (Serine/threonine-protein kinase tousled-like 2 (TLK2, Homo sapiens, UniProt Q86UE8)).
The remaining activity was 96.7% (Cyclin-dependent kinase 9, with cyclin K (CDK9, Homo sapiens, UniProt P50750)).
The remaining activity was 98.8% (Rho-associated protein kinase 1 (ROCK1, Homo sapiens, UniProt Q13464)).
For Serine/threonine-protein kinase MARK2 (MARK2, Homo sapiens, UniProt Q7KZI7): remaining activity read 77%.
